# Experimental data collected from several papers.
# Every numbered part comes from another study and shows a few of its results, in no order.

# Sample 1
# Target: Max dimerization protein 1, bHLH-zipper, MAX partner unstated (MXD1, Homo sapiens, UniProt Q05195, residues 56-136)
# Method: protein-binding microarray
# Form: double-stranded DNA, one strand shown
# Matrix: in vitro
# Tested at: not given
# Setting: k-mer, scored over probes, only values ≥0.25
# Reading: higher = stronger binding
# Construct (chain): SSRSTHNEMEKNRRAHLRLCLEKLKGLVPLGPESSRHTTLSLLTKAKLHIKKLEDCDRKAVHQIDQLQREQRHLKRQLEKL
Strand,E-score
GCGTGTTA,0.402
CATGCCCG,0.366
CATGGTCC,0.351
CACGATGC,0.27
AACGTGTC,0.371
CGGGGTGA,0.256
CATGTGTA,0.437
CGGGGCAC,0.271
CCCCACGC,0.362
CGGCGTGC,0.373
ACGCCCAC,0.271
CAGCATGA,0.373
ATGGCGTG,0.292
CGTGTTAG,0.328
ACGAGGCG,0.365
CATGGTAC,0.379
CACGGGGA,0.313
ACGTGCTG,0.317
CGTGTTAA,0.297
CGAGGGAA,0.251
CTACCCAC,0.32
GCGCACGA,0.348
AGCCACGC,0.355
AAAATCAC,0.265
CACGCCGA,0.338

# Sample 2
# Target: PABPC1L2, full length, GST fusion (mouse, UniProt A0ABA7IW68)
# Method: RNAcompete
# Form: RNA
# Matrix: in vitro
# Tested at: 20 nM
# Setting: 7-mer, probes averaged, single round
# Baseline: mean of 7-mers
# Reading: higher = stronger binding
# Construct (chain): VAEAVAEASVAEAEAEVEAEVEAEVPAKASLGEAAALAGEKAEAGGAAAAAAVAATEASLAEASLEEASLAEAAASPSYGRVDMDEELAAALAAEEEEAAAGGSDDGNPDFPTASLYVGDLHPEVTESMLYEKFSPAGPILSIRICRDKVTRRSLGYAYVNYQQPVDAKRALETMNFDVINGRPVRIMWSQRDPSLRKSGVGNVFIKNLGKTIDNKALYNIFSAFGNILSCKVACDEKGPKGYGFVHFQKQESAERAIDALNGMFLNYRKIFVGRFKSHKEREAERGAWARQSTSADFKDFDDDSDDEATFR
Strand,7-mer Z-score
UUACCCA,-0.282
GGACGGC,0.142
AACGUGU,0.0315
AAAGAGC,2.15
GGGUUGU,-0.217
GCGUCUC,-0.309
GGAUUCU,-0.182
CUUGGUG,0.0352
CCGAAAG,-0.112
CCCCUCU,-0.374
CUGGAUU,-0.171
UUAGUGU,-0.204
CUUAGUC,-0.434
CUGGUCU,-0.197
CCGGCCC,-0.467
CUAGGAC,0.066
CAUGCGU,-0.298
GGCAAUA,0.175
CCAAGGG,-0.0228
AACAACU,0.445
UAAGACC,0.00798
GCAUACC,-0.38
GUCCAAA,0.626
CUCAUUC,-0.396
AUUUCAA,-0.00289

# Sample 3
# Target: Interferon regulatory factor 5, full length, phosphomimetic (IRF5, Homo sapiens, UniProt Q13568-2, residues 1-514, S451D/S453D/S456D/S462D)
# Method: protein-binding microarray
# Form: double-stranded DNA, one strand shown
# Matrix: in vitro
# Tested at: 940 nM top
# Setting: 60-bp whole probe
# With: salmon DNA 0.4 mg/ml
# Baseline: random background probes
# Reading: higher = stronger binding
# Shared flanks, not repeated: GCCTAGCAC … GTCTTGATTCGCTTGACGCTGCTG
Strand,fitted relative affinity [z-score]
GACTGACTGGGTTTCGGGACGTGCTAG,2.86
GACGAACTGAGTATTGAGACGTGCTAG,-0.262
GACGATTTCAGTTCCGAGAAGTGCTAG,0.825
CCAGCTCTGATGTTGGGAAAGTGCTAG,-0.256
TCAGATTTCAATTAAAAACTGTGCTAG,0.173
CCGTGTTTCTCAAATGTTTTGGTGCTA,0.93
TCAGCCCTCGGTTTACAACTGTGCTAG,-0.269
TTAGGACTGGGGACTCGGTTAGTGCTA,-0.318
TTAGGACTGGGACTGGGTCAGTGCTAG,-0.906
TCAGTAATGCTTCTGTAACTGTGCTAG,0.221
TAAGATTTCAGACTGGATTAGTGCTAG,-0.608
TCATGAACCATTTTGGTACTGTGCTAG,-0.292
TCAACTTTCAGTTCTCCACTGTGCTAG,2.04
TGAGGACTGGGTCTCGGTTAGTGCTAG,1.08
TTAGGTCTTCTTTTCCTTTAGTGCTAG,1.05
TTAGGACTGGACTCTGGGTTAGTGCTA,-0.194
GCAAGAACAGCTGGTGGGCAGTGCTAG,-0.602
TTAGGTCTTCTTATCCTTTAGTGCTAG,0.744
TTAGACATCAGTCTCGATTAGTGCTAG,2.61
TTAGGTCTCCTTATCTTTTAGTGCTAG,0.643
TTCGGTTTCGACTATCGGTTAGTGCTA,9.23
GACGGACTGCTTCTCCCGACGTGCTAG,0.223
TTTTTTTTTTTTGTATTTTTGTGCTAG,1.61
TCAGCTCTGTTGCCTGGTACTGTGCTA,0.208
TTATGACTGGGTCTCGGTTAGTGCTAG,1.15

# Sample 4
# Target: Histone acetyltransferase KAT6A, winged helix 2, GST fusion (KAT6A, Homo sapiens, UniProt Q92794, residues 85-181)
# Method: protein binding microarray
# Form: double-stranded DNA, one strand shown
# Matrix: in vitro
# Tested at: not given
# Setting: 8-mer, flanks averaged, mean of 2 arrays, mostly near background
# Baseline: not given
# Reading: higher = stronger binding
# Residues (chain): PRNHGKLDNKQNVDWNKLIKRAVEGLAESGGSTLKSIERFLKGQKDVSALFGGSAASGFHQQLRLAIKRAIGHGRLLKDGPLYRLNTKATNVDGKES
Strand,E-score
CCCCACCG,0.0913
TCTTTGAA,-0.0249
ACGTTTAC,-0.202
AGCGCGTA,0.14
AACCCCCG,-0.183
CAGGTGGA,0.052
AGGCTATC,0.0367
AATCGAAC,-0.035
GTGTACCA,-0.106
CACGAAGG,0.102
AAGTGGAC,0.0868
AAGGTTAT,-0.0334
CGTCAAAC,-0.0219
ACATGCCG,0.0194
CCGTTGAG,0.0469
ACCTGAAA,0.0226
GCGACCAC,0.0929
CGTCCTCA,0.00315
CAGACTGG,-0.0348
CCCTTCAA,-0.0583
AATTCCAG,0.0713
CGTTTAAA,-0.0965
AAGACCCC,-0.107
ATCCGATG,0.0711
CTACTTTA,-0.164

# Sample 5
# Target: RING finger protein unkempt homolog, zinc fingers 1-6, GST-SBP tag (UNK, Homo sapiens, UniProt Q9C0B0, residues 30-357)
# Chain of UniProt Q9C0B0 (30-357, looked up): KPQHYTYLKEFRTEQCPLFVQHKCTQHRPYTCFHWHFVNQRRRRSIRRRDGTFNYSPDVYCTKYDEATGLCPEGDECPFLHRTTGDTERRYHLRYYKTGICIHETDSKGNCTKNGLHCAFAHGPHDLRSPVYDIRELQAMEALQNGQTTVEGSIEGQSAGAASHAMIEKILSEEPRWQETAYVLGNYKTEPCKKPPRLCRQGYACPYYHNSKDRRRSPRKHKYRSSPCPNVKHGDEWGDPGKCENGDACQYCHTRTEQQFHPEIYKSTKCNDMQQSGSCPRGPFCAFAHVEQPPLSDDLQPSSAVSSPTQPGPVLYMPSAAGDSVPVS
# Method: RNA Bind-n-Seq
# Form: RNA
# Matrix: in vitro
# Tested at: not given
# Setting: RNA with constant flanks, human and mouse sites, ends assumed
# Baseline: input RNA pool
# Reading: higher = stronger binding
Strand,bound/input enrichment
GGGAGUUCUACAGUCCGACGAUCAGAUUUAAAGCUAGUCUACCAGAAGUAUUCUUUUGCAGUAAAGAAUGUUUGAAGUGUUCAUUUCUUCCUGUUCUUCCUCCUUCCACUCCCUUCAUGAUUUUGCUGUGAAAUACCAACUUGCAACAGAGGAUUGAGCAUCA,0.117 ratio
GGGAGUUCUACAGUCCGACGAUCAUUCCCAAAUCAGAAGAAAUGGCAUUCCGGGCGAUUUGUGUGUUGGUUGGAGUAUUUAUUUGUUCCAUUUGUGUACGAGGAUCUUCCCAGCCCCAAGCAAGAGUUUAUUUAACAUUUGAUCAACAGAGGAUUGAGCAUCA,0.384 ratio
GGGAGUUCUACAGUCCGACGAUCGACAAUGGACCAUCUUCCUAGAACUCCCAACUAAAUACUUCAGGACACAUCUUCUGGAAUGUAUUUUACUUUUGAGGUGGAGGGAGAAAUUGUCUUAUUGAUUCCUAAAUUCUUUGCAGGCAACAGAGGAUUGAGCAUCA,0.185 ratio
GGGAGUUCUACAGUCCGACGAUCUCGGGUGAGGCCUGGCCUGCUGUUCUAAGUAGUCCACUGGCAUUGCCUUCCAAGCCACUUUAGGUCCUUUUGUUUUGUUUUGUUUUUGUUUUUAAAUCAGUGCUCUUACUUCCUGUACAUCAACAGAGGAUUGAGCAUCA,5.77 ratio
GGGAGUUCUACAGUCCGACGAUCAUGCUCUUAGAAGCUGAAAAUGACAAAGAGGUCGAAAUUCUUAAAGACAUCCGAGCACAUUUUAGCGCCAUGGUUGCCAACUUGAUCCAGUGUGUUCCAGUUCAUCACAGAAGAUUUCUCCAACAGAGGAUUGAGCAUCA,0.121 ratio
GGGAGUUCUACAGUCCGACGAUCGGAGAUAACCAGCCACUUCAUAUUUUUGACAAACUCCAUACAUCACCUCUUACUCAGAUACGGCUAAACCCAGUUUACAAAGCAGUAGUGUCUUCUGACAAAUCUGGGAUGAUUGAAUACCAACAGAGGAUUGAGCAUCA,0.306 ratio
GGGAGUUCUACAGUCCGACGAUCAGAAGCUUCAUAAGGAAUAAACAAGUUGAAUAGAGAAAACACUGAUUGAUAAUAGGCAUUUUAGUGGUCUUUUUAAUGUUUUCUGCUGUGAAACAUUUCAAGAUUUAUUGAUUUUUUUUUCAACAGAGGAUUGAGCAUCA,3.86 ratio
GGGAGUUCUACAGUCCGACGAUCAGGAAAUGUUGUAAUCAUCCAUAUCUUAUAAAAGGUGCUGAGGAGAAAAUACUUGGAGAAUUUAGAGAUACUUACAAUCCAGCUGCUUCUGAUUUUCAUCUUCAAGCAAUGAUCCAGUCUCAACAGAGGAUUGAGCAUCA,0.344 ratio
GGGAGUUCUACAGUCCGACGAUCAAGAAAGUACAUAGCCAAGGUAACCCAUCAAAAGCAGCUCCUAGGGAAAGAGAGCCAAUUCAGCGAGGAGCCCAGGAAGUAAGUGUAGACUCUGAAGUGAGUCGGAAAGCACUCUCUAGGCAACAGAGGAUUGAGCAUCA,0.522 ratio
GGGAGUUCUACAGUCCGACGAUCUCUACGAGAAAUUACGACUUUGCAUGGAGAAAGUUGACCAGAAAGCUCCAGAAUACAUCAGGAUGGCAGCAUCAUUAAAUGCUGGGGAGACAACCUACAGUCUGGAACAUGCCAGUGACCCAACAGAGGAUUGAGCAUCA,0.194 ratio
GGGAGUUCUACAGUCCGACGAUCAACACUAAUGAGAGAUCAUGAUGCAGCCGUCCUUUUGGAUUUCUUUUUAAUAAUGUGUGACCCUUCACCUUUGAUCCCCUGACCUGCAUUACCUUGGUAACCAUUUCAUUUUUUAAUUUACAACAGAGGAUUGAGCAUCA,1.03 ratio

# Sample 6
# Target: Sal-like protein 4, full length isoform A (SALL4, Homo sapiens, UniProt Q9UJQ4, residues 1-1053)
# Chain of UniProt Q9UJQ4 (whole entry, looked up): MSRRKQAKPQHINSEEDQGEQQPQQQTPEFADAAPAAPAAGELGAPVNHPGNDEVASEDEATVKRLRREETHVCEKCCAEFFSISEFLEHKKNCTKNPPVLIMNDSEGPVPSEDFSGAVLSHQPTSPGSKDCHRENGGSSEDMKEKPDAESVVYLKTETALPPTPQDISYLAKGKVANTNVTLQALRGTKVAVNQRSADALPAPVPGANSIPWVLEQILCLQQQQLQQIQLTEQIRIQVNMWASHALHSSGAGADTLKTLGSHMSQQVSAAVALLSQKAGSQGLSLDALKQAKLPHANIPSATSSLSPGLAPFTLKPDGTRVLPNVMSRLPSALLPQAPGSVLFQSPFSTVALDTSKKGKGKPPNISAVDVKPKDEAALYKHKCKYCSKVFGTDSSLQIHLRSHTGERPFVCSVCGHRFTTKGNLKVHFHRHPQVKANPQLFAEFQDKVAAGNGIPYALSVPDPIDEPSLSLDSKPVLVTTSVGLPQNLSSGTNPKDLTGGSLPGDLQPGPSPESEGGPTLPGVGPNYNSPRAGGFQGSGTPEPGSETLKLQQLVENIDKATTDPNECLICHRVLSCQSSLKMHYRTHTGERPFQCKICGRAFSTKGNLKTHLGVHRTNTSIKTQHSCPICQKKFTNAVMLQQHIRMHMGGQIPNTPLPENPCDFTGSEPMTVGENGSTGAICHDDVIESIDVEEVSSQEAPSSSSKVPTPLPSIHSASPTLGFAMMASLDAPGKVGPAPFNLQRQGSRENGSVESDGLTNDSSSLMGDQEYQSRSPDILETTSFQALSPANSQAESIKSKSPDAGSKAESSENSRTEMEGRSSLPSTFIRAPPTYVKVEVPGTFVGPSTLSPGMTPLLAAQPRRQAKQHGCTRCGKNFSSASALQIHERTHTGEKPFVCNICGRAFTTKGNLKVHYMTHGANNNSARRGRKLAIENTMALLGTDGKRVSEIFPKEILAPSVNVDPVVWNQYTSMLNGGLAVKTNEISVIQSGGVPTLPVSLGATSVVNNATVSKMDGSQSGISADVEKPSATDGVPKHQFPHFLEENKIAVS
# Method: universal PBM
# Form: double-stranded DNA, one strand shown
# Matrix: in vitro
# Tested at: 600 nM
# Setting: 8-mer, flanks averaged, mean of replicates
# Reading: higher = stronger binding
Strand,E-score
CGGCTACA,-0.103
AATGCACG,0.075
TACTAAAA,0.257
GAGTGATC,-0.0781
CCGGCACC,-0.335
CTTTACAC,0.0254
AACGCTAT,0.125
ACTCCAGC,-0.165
AGCTACGA,-0.06
GACGCCTC,-0.183
CCGATCCA,-0.146
CTGGGCCC,-0.426
ATGTGGCA,-0.157
ATGGAACC,-0.0661
CCCAAGGG,-0.355
GCATAAAC,0.251
ACAGTAGC,-0.112
ATTAAACA,0.313
AGGAATGG,-0.133
TACATTGA,0.269
CCTACTTC,-0.0326
AAAGGATG,0.149
AGGGGTTA,-0.187
CGGTCTGA,-0.152
CCCTATAG,0.0517

# A few entries again (sample 6):
Strand,E-score
TACATTGA,0.269
CGGCTACA,-0.103
ATTAAACA,0.313
GACGCCTC,-0.183
CCCTATAG,0.0517
ACTCCAGC,-0.165
GAGTGATC,-0.0781
ATGTGGCA,-0.157
CCCAAGGG,-0.355
AACGCTAT,0.125
CCGATCCA,-0.146
AGCTACGA,-0.06
CTTTACAC,0.0254
TACTAAAA,0.257
AATGCACG,0.075
CGGTCTGA,-0.152
ATGGAACC,-0.0661
